{"data": "Results of several laboratories", "note": "Lines come from different studies, so protocols differ. “And” joins repeats or separate records; there may be more than shown. ± marks the error that the study gave."}
{"SMILES": "O=c1ccc2cc3ccoc3cc2o1", "assay": "post-procedure stability", "test system": "rat plasma", "conditions": "1000 ng/mL, 3 h, room temperature", "endpoint": "accuracy", "result": "107%"}
{"SMILES": "CN1CC[C@@H](c2c(O)cc(O)c3c(=O)cc(-c4ccc(C(F)(F)F)cc4Cl)oc23)[C@@H]1CO", "assay": "item: Dyspnea", "test system": "AML", "conditions": "oral, 150 mg, intermittent dosing", "endpoint": "patients with adverse event", "result": "25%"}
{"SMILES": "CCCCCOc1ccc(-c2ccc(-c3ccc(C(=O)N[C@H]4C[C@@H](O)[C@@H](OCC[N+](C)(C)C)NC(=O)[C@@H]5[C@@H](O)[C@@H](C)CN5C(=O)[C@H]([C@@H](C)O)NC(=O)[C@H]([C@H](O)[C@@H](O)c5ccc(O)cc5)NC(=O)[C@@H]5C[C@@H](O)CN5C(=O)[C@H]([C@@H](C)O)NC4=O)cc3)cc2)cc1", "test system": "adult ICU patients, mITT, serum", "conditions": "dose not given, Baseline", "endpoint": "potassium", "result": "4.2 mmol/L"}
{"SMILES": "CN(C(=O)n1cnc(-c2ccc[n+]([O-])c2)c1)C1CCCCC1", "test system": "Wistar rat, medulla oblongata", "conditions": "oral, 10 mg/kg/day, 72 h, repeated 5 days", "endpoint": "concentration", "result": "9.5 ± 1.4 ng/g"}
{"SMILES": "Cn1cncc1-c1c(F)cncc1NC(=O)c1c(N)nn2cc(F)cnc12", "test system": "human patients", "conditions": "oral, 130 mg once daily", "endpoint": "grade ≥3 creatinine increase incidence", "result": "0%"}
{"SMILES": "COc1ccc([C@@H]2CC(=O)c3c(O)cc(O)cc3O2)cc1O", "test system": "Sprague-Dawley rat, male, lean, urine", "conditions": "oral, 100 mg/kg of neohesperidin, 48 h, after β-glucuronidase/sulfatase, total", "endpoint": "amount excreted in urine", "result": "110 ± 15.7 ng"}
{"SMILES": "O=S(=O)([O-])C(F)(F)C(F)(F)C(F)(F)C(F)(F)C(F)(F)C(F)(F)C(F)(F)C(F)(F)F.[K+]", "assay": "item: TBARS, MDA", "test system": "male C57BL/6J mice, liver", "conditions": "concentration not given, EtOH-fed or pair-fed", "endpoint": "lipid peroxidation", "result": "no effect"}
{"SMILES": "CCc1ccc(CC/C=C/c2ccc3c(c2)C(=O)CC3)cc1", "test system": "Sprague-Dawley rat, female", "conditions": "oral, 120 mg/kg/day, 14 days", "endpoint": "LDH serum activity", "result": "477 U/L"}
{"SMILES": "C=CC(=O)Nc1cc(Nc2nccc(Nc3cc(Cl)c(F)cc3C(C)(C)O)n2)c(OC)cc1N1CC[C@@H](N(C)C)C1", "assay": "treatment-emergent adverse events", "test system": "human", "conditions": "oral, 50 mg, phase I clinical trial", "endpoint": "incidence of blood creatinine increased", "result": "0%"}
{"SMILES": "COc1ccc(-c2c(-c3ccc(C#N)c(F)c3)nc(N3CCC(N)CC3)n(C)c2=O)cc1F", "assay": "item: Constipation", "test system": "neuroendocrine neoplasm patients", "conditions": "oral, 60 mg, grade 3 to 4, dose expansion", "endpoint": "treatment-related adverse event incidence", "result": "0%"}
{"SMILES": "CC[C@H](C)CCCCC(=O)N[C@@H](CCN)C(=O)N[C@H](C(=O)N[C@@H](CCN)C(=O)N[C@H]1CCNC(=O)[C@H]([C@@H](C)O)NC(=O)[C@H](CCN)NC(=O)[C@H](CCN)NC(=O)[C@H](CC(C)C)NC(=O)[C@@H](Cc2ccccc2)NC(=O)[C@H](CCN)NC1=O)[C@@H](C)O", "test system": "human, critically ill, AKI, plasma", "conditions": "dose not given, mean", "endpoint": "fAUC(0-24) steady state", "result": "65.3 µg·h/mL"}
{"SMILES": "c1ccc(-c2nnn[nH]2)cc1", "conditions": "pH 7.4", "endpoint": "logD (chromatographic)", "result": 0.06}
{"SMILES": "C[C@H]1COCCN1c1nc(NCc2cccnc2C(F)(F)F)c2cccnc2n1", "test system": "male CD-1 mouse, femur bone marrow", "conditions": "oral, 1000 mg/kg twice, 48 h", "endpoint": "PCE share", "result": "48.5% and 55.5% and 38%"}
{"SMILES": "C[C@]1(CO)Cc2ncn(-c3ccc(C#N)c(Cl)c3)c2C(=O)O1", "test system": "human, plasma", "conditions": "20 mg, first dose fasted", "endpoint": "Cmax", "result": "0.728 µM"}
{"SMILES": "CC[C@H](C)[C@H](NC(=O)[C@H](Cc1ccccc1)NC(=O)[C@H](CCC(=O)O)NC(=O)[C@H](CCCNC(=N)N)NC(=O)[C@H](C)NC(=O)[C@H](C)NC(=O)[C@H](CCC(N)=O)NC(=O)[C@H](CCC(=O)O)NC(=O)[C@H](CCC(=O)O)NC(=O)[C@H](CC(C)C)NC(=O)[C@H](Cc1ccc(O)cc1)NC(=O)[C@H](CO)NC(=O)[C@H](CO)NC(=O)[C@@H](NC(=O)[C@H](CC(=O)O)NC(=O)[C@H](CO)NC(=O)[C@@H](NC(=O)[C@H](Cc1ccccc1)NC(=O)[C@@H](NC(=O)CNC(=O)[C@H](CCC(=O)O)NC(=O)[C@H](C)NC(=O)CCc1cnc[nH]1)[C@@H](C)O)[C@@H](C)O)C(C)C)C(=O)N[C@@H](C)C(=O)N[C@@H](Cc1c[nH]c2ccccc12)C(=O)N[C@@H](CC(C)C)C(=O)N[C@H](C(=O)N[C@@H](CCCNC(=N)N)C(=O)NCC(=O)N[C@@H](CCCNC(=N)N)C(=O)N[C@@H](CCCCNC(=O)COCCOCCNC(=O)COCCOCCNC(=O)CC[C@H](NC(=O)CCCCCCCCCCCCCCCCC(=O)O)C(=O)O)C(=O)NCC(=O)NCC(=O)N[C@@H](CO)C(=O)N[C@@H](CCCCNC(=O)[C@H](CCCCNC(=O)[C@H](CCCCNc1c(NCCCCCN(O)C(=O)CCC(=O)NCCCCCN(O)C(=O)CCC(=O)NCCCCCN(O)C(C)=O)c(=O)c1=O)Nc1c(NCCCCCN(O)C(=O)CCC(=O)NCCCCCN(O)C(=O)CCC(=O)NCCCCCN(O)C(C)=O)c(=O)c1=O)NC(=O)[C@H](CCCCNc1c(NCCCCCN(O)C(=O)CCC(=O)NCCCCCN(O)C(=O)CCC(=O)NCCCCCN(O)C(C)=O)c(=O)c1=O)Nc1c(NCCCCCN(O)C(=O)CCC(=O)NCCCCCN(O)C(=O)CCC(=O)NCCCCCN(O)C(C)=O)c(=O)c1=O)C(=O)O)C(C)C [zirconium-89 labelled]", "assay": "ex vivo gamma counting", "test system": "male Sprague-Dawley rats, spleen", "conditions": "intravenous, 1 nmol, 24 h", "endpoint": "tissue uptake", "result": "1.1 %ID/g"}
{"SMILES": "COS(C)(=O)=O", "assay": "alkaline comet", "test system": "female Hsd:ICR (CD-1) mouse, liver", "conditions": "oral, 40 mg/kg/day, positive control", "endpoint": "tail DNA", "result": "24.4%"}
{"SMILES": "C=C(CN(C(=O)c1c(C(F)F)nn(C)c1F)C1CC1)c1ccc(Cl)cc1Cl", "assay": "static acute toxicity test", "test system": "zebrafish (Brachydanio rerio)", "conditions": "1.20 mg a.i./L, 6 h", "endpoint": "mortality", "result": "30%"}
{"SMILES": "CO[C@H]1C[C@@H]2CC[C@@H](C)[C@@](O)(O2)C(=O)C(=O)N2CCCC[C@H]2C(=O)O[C@H]([C@H](C)C[C@@H]2CC[C@@H](OC(=O)NCCOCCOCCOCCOCCOCCOCCOCCOCCC(=O)N3CCc4cc(Cn5nc(-c6ccc7oc(N)nc7c6)c6c(N)ncnc65)ccc4C3)[C@H](OC)C2)C[C@@H](O)[C@H](C)/C=C(\\C)[C@@H](O)[C@@H](OC)C(=O)[C@H](C)C[C@H](C)/C=C/C=C/C=C/1C", "test system": "patients with advanced solid tumours", "conditions": "intravenous, 8 mg weekly, any grade", "endpoint": "abdominal pain incidence", "result": "25%"}
{"SMILES": "COc1ncccc1-c1cnn2ccc(N3CCN(C(=O)OC(C)C)CC3)nc12", "test system": "rat, thermal hyperalgesia model, plasma", "conditions": "oral, 30 mg/kg, 180 min", "endpoint": "free drug concentration", "result": "0.062 µM"}
{"SMILES": "N[C@@H]1c2ccccc2OC12CCN(c1cnc3c(N4CCCc5ncccc54)n[nH]c3n1)CC2", "test system": "advanced solid tumour patients", "conditions": "oral, 40 mg once daily", "endpoint": "serious TEAE grade ≥3", "result": "25%"}
{"SMILES": "[O-][S+]1CCc2nc(N3CCC(c4ncc(Cl)cn4)CC3)nc(NC3(CO)CCC3)c21 (stereo not drawn)", "assay": "item: Headache", "test system": "healthy male humans", "conditions": "36 mg single dose", "endpoint": "adverse event incidence", "result": "16.7%"}
{"SMILES": "O=C(c1ccc(F)c(F)c1Nc1ccc(I)cc1F)N1CC(O)([C@@H]2CCCCN2)C1", "test system": "patients aged sample A to sample B years", "conditions": "oral, dose not given", "endpoint": "serious adverse events", "result": "29%"}
{"SMILES": "O=C(Nc1ccccc1)C1CCN(C(=O)Oc2cccnc2)CC1", "assay": "adverse event reporting", "test system": "healthy women", "conditions": "oral, 20 mg, 7 days", "endpoint": "subjects with Rhinitis adverse event", "result": "7.1%"}
{"SMILES": "Cc1ccc2cc(N3CCC4(O)C(=O)c5cc(C)c(C)cc5N=C34)ccc2n1 (stereo not drawn)", "assay": "respiratory safety pharmacology", "test system": "rat", "conditions": "IV, dose not given", "endpoint": "minute volume", "result": "no effect"}
{"SMILES": "CCN1CCN(Cc2ccc(Nc3ncc(F)c(-c4cc(F)c5nc6n(c5c4)[C@H](C)CCC6)n3)nc2)CC1", "test system": "patients with advanced solid tumours", "conditions": "dose not given, phase Ia monotherapy", "endpoint": "AST increased grade ≥3", "result": "4.2%"}
{"SMILES": "COc1cc2c(Oc3ccc4[nH]c(C)cc4c3F)ccnc2cc1OCC1(N)CC1", "test system": "paediatric recurrent refractory sarcoma", "conditions": "8 mg/kg", "endpoint": "grade 1 or 2 Diarrhoea", "result": "33.3%"}
{"SMILES": "CC(C)C[C@H](NC(=O)[C@H](CCCCN)NC(=O)OCC1c2ccccc2-c2ccccc21)C(=O)N[C@H](C(=O)N[C@@H](Cc1ccccc1)C(=O)N[C@@H](Cc1ccccc1)C(=O)N[C@@H](CCCCN)C(=O)NCC(=O)N[C@@H](Cc1ccccc1)C(=O)N[C@@H](C)C(=O)N[C@@H](Cc1c[nH]c2ccccc12)C(=O)N[C@@H](CC(N)=O)C(=O)N[C@H](C(=O)N[C@H]1CSSC[C@@H](C(=O)N[C@@H](Cc2c[nH]cn2)C(=O)N[C@@H](CCCNC(=N)N)C(=O)N[C@@H](CCCNC(=N)N)C(=O)N[C@@H](C)C(=O)N[C@@H](CC(N)=O)C(N)=O)NC(=O)[C@H](C(C)C)NC(=O)[C@H](CCCNC(=N)N)NC(=O)[C@H](C(C)C)NC(=O)CNC(=O)[C@H](CC(N)=O)NC(=O)[C@H](CCCNC(=N)N)NC(=O)[C@H](Cc2ccc(O)cc2)NC(=O)[C@H](C(C)C)NC1=O)C(C)C)C(C)C", "test system": "ICR mice, blood", "conditions": "intraperitoneal, 5 mg/kg, day 5", "endpoint": "platelet distribution width", "result": "15.8 ± 0.33%"}
{"note": "Excerpt of the above:"}
{"SMILES": "CCCCCOc1ccc(-c2ccc(-c3ccc(C(=O)N[C@H]4C[C@@H](O)[C@@H](OCC[N+](C)(C)C)NC(=O)[C@@H]5[C@@H](O)[C@@H](C)CN5C(=O)[C@H]([C@@H](C)O)NC(=O)[C@H]([C@H](O)[C@@H](O)c5ccc(O)cc5)NC(=O)[C@@H]5C[C@@H](O)CN5C(=O)[C@H]([C@@H](C)O)NC4=O)cc3)cc2)cc1", "test system": "adult ICU patients, mITT, serum", "conditions": "dose not given, Baseline", "endpoint": "potassium", "result": "4.2 mmol/L"}
{"SMILES": "CN(C(=O)n1cnc(-c2ccc[n+]([O-])c2)c1)C1CCCCC1", "test system": "Wistar rat, medulla oblongata", "conditions": "oral, 10 mg/kg/day, 72 h, repeated 5 days", "endpoint": "concentration", "result": "9.5 ± 1.4 ng/g"}
{"SMILES": "CN1CC[C@@H](c2c(O)cc(O)c3c(=O)cc(-c4ccc(C(F)(F)F)cc4Cl)oc23)[C@@H]1CO", "assay": "item: Dyspnea", "test system": "AML", "conditions": "oral, 150 mg, intermittent dosing", "endpoint": "patients with adverse event", "result": "25%"}
